Assay results pooled from the literature.
Compare with care: the assays were run in different laboratories. Several values in a cell are separate wells, animals, samples, runs or records. ± marks the error that the study gave.
Organism: Plasmodium falciparum

Structure (SMILES)	test	system	conditions	how to read	quantity	value
COc1ccccc1C1CN(CCNC(=O)c2nc(C)c[nH]2)Cc2ccccc2O1 (stereo not drawn)	parasite growth, SYBR Green	3D7 DHODH E182D	72 h		EC50	> 12500 nM
COCC(=O)N1CCC[C@H](C(=O)NCc2nc(-c3ccccc3)cs2)C1		Dd2 β3 R190S resistant			EC50	2700 ± 170 nM
COCc1ccccc1C(=O)NCCOc1cc(C)cc(C)c1	parasite growth				EC50	53.5 ± 7.9 nM
NCCC[C@@H](CC(=O)N[C@@H]1CCNC[C@H]1C(=O)N[C@H](CC(=O)N[C@@H](CCC(=O)O)CC(=O)O)Cc1c[nH]c2ccccc12)NC(=O)C[C@H](CO)NC(=O)[C@@H]1CNCC[C@H]1N	SYBR Green	FVO	concentration not given, 36 h		growth inhibition	inactive
CN(C)CCCN1c2ccccc2CCc2ccccc21		W2			IC50	1260 nM
CCOc1cccc(=O)c2c(C)n(Cc3ccc(Cl)cc3)c(C)c12	parasite growth, SYBR Green	3D7 wild type	72 h		EC50	1080 ± 580 nM
C[C@]12C=CC(=O)C=C1CC[C@@H]1C2=CC[C@]2(C)[C@@H](C(=O)CN3CCN(c4cc(N5CCCC5)nc(N5CCCC5)n4)CC3)CC[C@@H]12		3D7			IC50	631 nM
Ic1ccc(N2CCN(Cc3c[nH]c4ncccc34)CC2)cc1		FVO, purified merozoites, erythrocytes	50 µM		merozoite invasion	87%
Cc1ccc(NC(=O)c2cc(S(=O)(=O)NC(C)(C)C)ccc2C)nc1	parasite growth, SYBR Green	3D7 DHODH E182D	72 h		EC50	5560 ± 1100 nM
N=C(N)NC(=O)Cc1c(Cl)cccc1Cl		W2			IC50	2510 nM
C[C@H]1[C@@H](O)O[C@@H]2O[C@@]3(C)CC[C@H]4[C@H](C)CC[C@@H]1[C@@]24OO3	ring-stage survival	5248	700 nM, 6 h		parasite survival	12.3%
CCN1CCN(Cc2ccc(Nc3nc4ccc(Oc5ccnc(NC(=O)C6CCN(C)CC6)c5)cc4n3C)cc2C(F)(F)F)CC1	heme fractionation	3D7	multiples of EC50		hemozoin level	decreased
Oc1cccc(C(Nc2nccs2)c2ccc3cccnc3c2O)c1 (stereo not drawn)	parasite growth, inhibitor, SYBR Green I	Cam3.1 R539T (MRA-1240)			IC50	1490 nM
O=C(NCCN1CCCC1)c1cc(-c2ccc(CN3CCOCC3)cc2)nc2ccc(F)cc12	18S rRNA qPCR	human	150 mg		parasite clearance break point	34.3 h and 37.1 h and 28.6 h and 31.9 h and 46 h and 33.5 h
CC1=C(C)C(=O)C(CCCCC#CCCCC#CCO)=C(C)C1=O		7G8			IC50	2000 nM
O=C(Nc1cccc(Cl)c1Cl)Nc1ccnc2ccccc12	parasite growth, SYBR Green	3D7 wild type	72 h		EC50	1290 ± 340 nM
Fc1ccc(C(OCCCc2c[nH]cn2)c2ccc(F)cc2)cc1		D10			IC50	3980 nM
Cl.O[C@]12C=C(c3nccc4c3[nH]c3ccccc34)[C@@H]3CCN(CCCC/C=C\CC1)C[C@@]31C[C@@H]3/C=C\CCCCN3[C@H]12		W2, chloroquine-resistant		reference: Vero IC50 over W2 IC50	selectivity index	59
O=C(Nc1cccc(CN2CCN(C(=O)c3ccccc3)CC2)c1)c1cccs1	parasite growth, SYBR Green	3D7 DHODH E182D	72 h		EC50	1780 ± 330 nM
O=C1C(O)=C([C@H]2CC[C@H](c3ccc(Cl)cc3)CC2)C(=O)c2ccccc21	growth	C2B	72 h		IC50	10100 ± 600 nM
COc1ccccc1N1CCN(CCCCNC(=O)c2ccc3ccccc3c2)CC1		D10			IC50	6310 nM
COc1cc(NC(=O)Cn2ccc3cc(F)c(-c4cnn(C)c4)cc32)cc(OC)c1OC		recrudescent Dd2-B2, PfATP4 V178I	flask 2	reference: Dd2-B2	IC50 fold shift	106
Cc1ccc2c(c1)CC[C@@](CCN(C)CCCc1nc3ccccc3[nH]1)(OC(=O)C1CC1)[C@H]2C(C)C		D10			IC50	5010 nM
CCc1cc2c(cc1CC)CC(NC[C@@H](O)c1ccc(O)c3[nH]c(=O)ccc13)C2	parasite growth, SYBR Green	3D7 DHODH E182D	72 h		EC50	587 ± 110 nM
Cn1nc2c(=O)n(C3CC3)cnc2c1[C@](O)(c1cnc(C(F)(F)F)c(Cl)c1)C(F)(F)F		Pf3D7^0087/N9, mouse, blood	dose not given, 96 h		average blood concentration at ED90	< 320 nM
COc1cc2nc(N3CCN(C(=O)C4COc5ccccc5O4)CC3)nc(N)c2cc1OC (stereo not drawn)		3D7			IC50	3160 nM
CCc1nc2nc(C)cc(Nc3cc(C)cc(C)c3)n2n1	parasite growth, SYBR Green	3D7 wild type	72 h		EC50	193 ± 78 nM

Some of these lines once more:
Structure (SMILES)	test	system	conditions	how to read	quantity	value
Fc1ccc(C(OCCCc2c[nH]cn2)c2ccc(F)cc2)cc1		D10			IC50	3980 nM
C[C@]12C=CC(=O)C=C1CC[C@@H]1C2=CC[C@]2(C)[C@@H](C(=O)CN3CCN(c4cc(N5CCCC5)nc(N5CCCC5)n4)CC3)CC[C@@H]12		3D7			IC50	631 nM
